# Assay results gathered from unrelated publications.
# Parts stem from different laboratories: compare values within a part only.

# Block 1 — technique: RNA Bind-n-Seq; molecule type: RNA; matrix: in vitro; tested at: 365 nM; baseline: no-protein control; reading: higher = stronger binding
# Target: RNA binding protein fox-1 homolog 2, RRM domain, GST-SBP tag (RBFOX2, Homo sapiens, UniProt O43251-10, residues 100-194)
# Notes: natural RNA segment, single round, ends assumed
# All sequences stand within: GGGAGUUCUACAGUCCGACGAUC … UGGAAUUCUCGGGUGCCAA
# Target sequence (chain): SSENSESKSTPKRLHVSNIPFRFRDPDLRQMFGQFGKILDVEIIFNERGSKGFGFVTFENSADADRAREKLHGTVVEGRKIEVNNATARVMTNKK
Strand,RBNS enrichment (R)
AAGGCGAGGGCUACAGGCUGAGAGAGCUUGAGCUCAGAGGCUUUUAUGAACCGUUUCCUCUGAGGGCCACCCUUGAUCUCUAGCAGAACAGCAAGCAGAACACCGUGCAU,0.65
CCUCCUUCUCCUUCUCACACACAACUGUCCAUACUAACAAGUUUGGUGCAUGUCUGUUCUUCUGUAGGGAGAAGCUUUAGCUUCAUUUUACUAAAAAGAUUCCUCGUUAU,0.247
AGGAAGCAGUUUUAGUAUCAGAAAAGAUUUAUUAGAAAAUUCUCACGCUGAACUGGUGUAGCAUGUGGUGCAGCAUUCAGUGAAACUGGCUGGAGGAAAUAGGCUUGUUU,9.45
UUCUGUGUUUGAAGUAUGUGCAUAUGUGCUUUACAGAAUAAAACAUCUGGAUUUACUUGGUUUGCCGUUUUAAUUCCAGCCGGAUUGGUGUUCUUUAAACAAAAAGUAGG,0.418
CAAAAAUUAAUGGUUUAGAUAUAUUUAUAAUAAACUGAUUUAAACUUUUUCUAUAAGAAGAAAAAUUAAGACCACUUAUUUGAAAACAAAGAUGAAGUCUCACCUUCCAG,0.614
UCAGAUGACAAAAUGGAAGCCAAGACACCUUGAAGGUGACUUUCUAGGAAGGUCUUAAGCAUGUAAUGUCCCUUUAUCAGAGGGAAGGGGACAAACUCAGGGCAGCCCUG,2.61
AUGGUUUCGAAAACUUUCUGUUUUUAUUUUGUCACAGAGCUGUUGUCAUAGUUGAAAUGAUGUUUAUUGUAGAUGGUAUUUGAACUUAUUCUUCUGGAAAUAGUUCAUCA,0.482
UGAUCCUGAAGUGACGUCCUGAUGUCUGCCCAGCAACCGACUCAACCUGCUUCUGUGACUUCGUUCUUUUUGUUUUCAAGGGGUGAAAACCCCCUGUCAGAAGGUACCGU,0.259
UACUGAUGCUCAGUAACCAUGAAAAACUGUGCACAUUCAUGUACUAAUAGAUCUGUACCUAUCUAUCUCUGUACGCAUAUAUACAGUUCACUGUAGAAAACCACAGCUAG,0.354
UUAAUCUCAUUUGGCUUCUGGUUUACAGAAGGUAAAGCUCCUAUUGGCUGUGAGCCGUUGGUGAAAUCCUUUCACAUCGACACCAAAAGCUCUCCCCAGCUAGUGAAAAC,0.186
AGCCCAGAACUUUUCCUUCUCAUUUUGGGUUUUCUCUUCUCCUGCUUUCCUGGGGAGAGAUUAAGCGCUCAUUAAGCAGAGGAGCCCACUUUGAGGAGAGCAAAGCACAA,0.479
GAAGUGACUCUAGUCUUUGUAAGCAAUUUUCAUUCUCAUUAGGAAGUUAAAUGUAGAUUCACAGAUACAUUUACUUUCAGAAUCCUCAAGAGGAUUUCAAAUGCUAACUU,0.56

# Block 2 — technique: aptamer microarray, sandwich; molecule type: DNA with 2'F-ANA; matrix: in vitro; tested at: 200 nM; with: Cy3 exosite-II aptamer, 400 nM; reading: higher = stronger binding; strand: GGTTGGTGTGGTTGG
# Target: Prothrombin, mature alpha-thrombin (F2, Homo sapiens, UniProt P00734)
# Notes: whole 15-mer aptamer, many near background
Modification,mean fluorescence intensity [a.u.]
2'F-ANA at 1 4 5 8 12 13 14 15,43.2
2'F-ANA at 4 7 9 12,560
2'F-ANA at 1 2 3 6 9 11 12 13 14,73.9
2'F-ANA at 4 7 8 9 12 13,469
2'F-ANA at 5 6 8 10 11 12 14,48.6
2'F-ANA at 1 2 3 6 7 14 15,71.5
2'F-ANA at 1 4 8 9 12 13 15,184
2'F-ANA at 3 4 10 11 13 15,229
2'F-ANA at 2 5 7 10 13 14,52.4
2'F-ANA at 1 3 4 9 10 11 13,57.3
2'F-ANA at 4 6 7 10 11 13 14 15,59.2
2'F-ANA at 2 3 9 11 12 14,512
2'F-ANA at 2 4 8 13 14 15,104
2'F-ANA at 1 2 3 7 9 10 11 13 15,71.9
2'F-ANA at 2 5 6 8 9 10 12,65.2
2'F-ANA at 1 3 5 8 9 14,45.6
2'F-ANA at 1 3 4 11 14 15,73.8
2'F-ANA at 1 4 5 7 9 11 12 13,72.5
2'F-ANA at 4 5 6 8 12 13 14,52.5
2'F-ANA at 1 3 9 10 11 13 14 15,62.1
2'F-ANA at 1 2 3 4 6 8 11 13,120
2'F-ANA at 1 2 5 6 7 10 13 15,79.5
2'F-ANA at 9 11 15,431
2'F-ANA at 4 5 6 9 11,92.4
2'F-ANA at 1 2 3 4 5 6 8 10 12,67

# Block 3 — technique: RNA Bind-n-Seq; molecule type: RNA; matrix: in vitro; tested at: 100 nM; baseline: input RNA pool; reading: higher = stronger binding
# Target: RING finger protein unkempt homolog, zinc fingers 1-6, SBP tag (UNK, Homo sapiens, UniProt Q9C0B0, residues 30-357)
# UniProt Q9C0B0, sequence (30-357, looked up): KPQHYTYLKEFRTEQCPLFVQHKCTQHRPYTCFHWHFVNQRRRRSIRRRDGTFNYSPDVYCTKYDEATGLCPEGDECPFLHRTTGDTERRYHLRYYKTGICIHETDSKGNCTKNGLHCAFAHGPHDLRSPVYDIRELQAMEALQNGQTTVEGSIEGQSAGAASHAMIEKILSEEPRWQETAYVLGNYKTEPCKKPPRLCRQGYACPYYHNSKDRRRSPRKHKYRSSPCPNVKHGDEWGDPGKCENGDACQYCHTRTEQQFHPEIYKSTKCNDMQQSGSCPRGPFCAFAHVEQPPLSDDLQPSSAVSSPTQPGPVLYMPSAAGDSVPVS
# Notes: RNA with constant flanks, vertebrate orthologous sites, ends assumed
# All sequences stand within: GGGAGUUCUACAGUCCGACGAUC … CAACAGAGGAUUGAGCAUCA
Strand,bound/input enrichment
UACUGGGUUGUGACAGUCCUCCUACCUCUCACACAGCACAGGGAGGACACCGGUCAGCAUCGGGGAGUCAGCUGCUCUUACGUUUUCAGUGCUGUGUAUCUGAGCCUUGAACGAGUCUCA,0.172 ratio
GAUAUUAAAUAGUAUUAAAAAUUUUCAUCUUCCUUUACCUUUUAUCCCCUACCUAAUACCUAGUCUACUUUUUUAAAUUUCAGACUUCACUGCUCUUUGAAUCGAUAAUUCCAAUUUUCA,3.83 ratio
UAAGAAUUGGAAGAAUUUUAUAGGAGGUGGUAGUCAAAAAGUAGAAGCAGUUUGGAAGAGUGGUUACAAAUAUCAAGAGCCAGGUGGCUAAAAGGUGGAGCUAUAGGUCAUUGAAGCUCA,0.588 ratio
UCUAUACAAUUUUAAAAAUACUUCCUCAUAGGAUGCUUUGGCCCUUCAUCUAUUUAAUCAUAGCUACAUAUCUAUUUUUUAUAAGUAGCAGUACACAUUCAAAGGGGUAUUCCUAGCUCA,1.22 ratio
CCCCGAUUUUAGAUGUGAUAUCUAGGCUUUCAUUCCAGUUUGUUUUUGUCUUUUCUUGUUUAGAUAACCAGUCUUUUAAAUUCUUGCAUUUUAGUAAGAAAGCAACCUUUUUAUGGAUGU,0.86 ratio
CCAGUUUUCCAUGUAGGGUUGGCCUCAAAUCUAUAGGAUUUUUGACAAAUGUACCAUAUGUAGUUGCAUUGAGUUUUAGUAUUUUUUUAUUAGCCUGUAAAUAAAGAUGGCAUCUCUCCU,3.14 ratio
AUCUCUCAUGUUAUAGAUUCAAAAGUGUCAUUUAAUUUUUAACGAAUUACUGGUUUUAAUUAAUUAGCUCUGCUUGGUCUUAUGGUUCACCUCCAGCAGAUACAGGUCUGAAUUACUACA,0.606 ratio
AAUAGGAGCAGCCUAGGCUGCUUGAGCUUUGGGAAAUGAGCUUUGCUUUUUAUAUUUAAAUAGGAUACUUUUAUAUGAUGGGUGCUUUCGAGCGUGAAUGCGGCAGGCUCUCCAUUUCAG,0.823 ratio
AUCUCACAUUUUAUAUGUCCAAAAGAGGUUUUGAAUUUUUAAACAAUUGCUAGUUUUGACUAGCUCUGCCCUCAUGAAGUAUCAUUAUAAUCGCCACAGAUAUCUGUCUGAAUUACUUCA,0.397 ratio
AUGUUCUUGUUCCUGUGGACUUUAAAAUAGCCACAGAACUUAACUUUUUCCAAAUGAUUCUAGUAAUUGCCUAGAAAUAUCUUUCUCUUCCUGUUAUUUAUCAAUUUUUCCCAGUAUUUU,1.15 ratio
AAAUUCAACAAAAAUGUUUCCACUGGGUUUGCUUUGUAAGAAAAAAUGAACCCGAACAUAUAGAGCUUUUUAAUAGCACUAACCAAUGCCUUUUUAGAUGUAUUUUUGAUGUAUAUAUCU,0.575 ratio

# Block 4 — technique: protein binding microarray; molecule type: double-stranded DNA, one strand shown; matrix: in vitro; tested at: not given; baseline: not given; reading: higher = stronger binding
# Target: Histone acetyltransferase KAT6A, winged helix 2, GST fusion (KAT6A, Homo sapiens, UniProt Q92794, residues 85-181)
# Notes: 8-mer, flanks averaged, mean of 2 arrays, mostly near background
# Residues (chain): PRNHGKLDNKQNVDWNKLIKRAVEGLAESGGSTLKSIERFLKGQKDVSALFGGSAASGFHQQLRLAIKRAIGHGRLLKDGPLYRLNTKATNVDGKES
Strand,E-score
CTATTCAA,-0.155
CTCGAGCC,0.0327
CGCGGCAG,0.134
ACGTACTG,-0.175
CAACAGGG,0.136
GCCCAAGC,0.185
ACAAAGTG,-0.0413
GTGAGATA,-0.0288
CCGTCTAA,0.0135
AGCAACGA,-0.0256
ACCGCGCG,0.164
AACCGTTG,-0.0977
CTTGAACC,0.0423
CCCTACGC,-0.0445
AGTCTTCC,-0.0602
ACACATTC,-0.172
CAAGATTC,0.0289
CGCACCAC,0.16
ATCCTAAA,-0.158
GACCAGAC,-0.0252
GCTGTCTA,-0.0215
CCCTCCGA,0.136
AACTAAGC,0.122
CGAGTGGA,0.0691
ACGATATC,-0.0585

# Repeated from above (block 4):
Strand,E-score
AACCGTTG,-0.0977
CCGTCTAA,0.0135
CTATTCAA,-0.155
CTTGAACC,0.0423
ATCCTAAA,-0.158
AACTAAGC,0.122
AGTCTTCC,-0.0602
ACACATTC,-0.172
